# Published values from different studies.
# A part holds a random share of what one study measured.

# Sample 1
# Target: Centromere-binding protein 1, full length, His-tagged (CBF1, Saccharomyces cerevisiae, UniProt P17106, residues 1-351)
# UniProt P17106, sequence (whole entry, looked up): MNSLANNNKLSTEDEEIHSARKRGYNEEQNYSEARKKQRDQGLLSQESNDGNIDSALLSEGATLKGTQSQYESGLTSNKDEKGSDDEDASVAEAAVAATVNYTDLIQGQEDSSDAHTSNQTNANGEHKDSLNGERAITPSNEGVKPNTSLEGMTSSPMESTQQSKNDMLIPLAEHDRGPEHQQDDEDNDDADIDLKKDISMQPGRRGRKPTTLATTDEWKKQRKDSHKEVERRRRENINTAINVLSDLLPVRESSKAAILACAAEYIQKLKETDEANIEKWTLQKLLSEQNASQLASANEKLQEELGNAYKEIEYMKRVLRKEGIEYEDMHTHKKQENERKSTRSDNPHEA
# Technique: competition protein-binding microarray
# Molecule type: double-stranded DNA, one strand shown
# Sample: in vitro
# Concentration: 2 µM
# Setting: whole 60-bp probe, lowest competitor level
# Added: Pho4 competitor, 0.05 µM
# Direction: higher = stronger binding
# Constant ends, left off below: … GTCTTGATTCGCTTGACGCTGCTG
Oligonucleotide,fluorescence intensity
TGTATTGATTTTTAGAACGTGAAAAGGATAAACTGA,117 a.u.
TGCGCAACAACTTGATAGGTGGGTGTATGTCTAGAA,52.1 a.u.
TCATTAAAAACGCTTCACGTGATGGTTACTTGCATA,3550 a.u.
AAAGCGGTAATTTGTCACGCGACTTCACATATCTAT,885 a.u.
TGACACTTCATGTTACACGTGAGGAGCTTCACCTTC,1100 a.u.
GGTGTCTCTGTCAGCCCCGTGGTCGCCAGCACAGAA,134 a.u.
AATGCTGAGAGTAGGCACATGGAGTAGCTTGAGTCA,85.8 a.u.
TAAGAAGAAAGATCGAACGTGATTGTAATGCTCCAA,173 a.u.
GTCTTGTCTCATTGAGTAGTGGGTGTCCCCACTTCA,88.1 a.u.
GTCTTGTCTCATTGACTAGTGGGTGTCCCCACTTCA,68.1 a.u.
AAAGCGGTAATTTGGCAGGTGGGTGCAGATATCTAT,90.7 a.u.
AAATTACTAAGTTGGTAAGTGGGTGACGCCGTATGA,76.3 a.u.
CGGGGTTAAGTTTGACCAGTGGGTGGCTTGCAGCAG,61.3 a.u.
TTATGTTCAACACGACATCCTAACAAATACTACAGC,91 a.u.
AATGATATCACCAGTACCGTGACGGACATCAAACTC,126 a.u.
AGCAATACCTTTCGGCACGTTCTTGAAAATTCCACA,194 a.u.
ATGGCTTTGGCTTTCCACATGGACATCAAGGTCTAC,82.8 a.u.
GGTACGGCAACTCAATCCGTGCCAGCTTCGGAAGCC,60.5 a.u.
CTTTCCCGATCTTGCATCGTGGGTGTAGCACATTTG,79.1 a.u.

# Sample 2
# Target: RNA binding protein fox-1 homolog 2, RRM domain, GST-SBP tag (RBFOX2, Homo sapiens, UniProt O43251-10, residues 100-194)
# Technique: RNA Bind-n-Seq
# Molecule type: RNA
# Sample: in vitro
# Concentration: 365 nM
# Setting: natural RNA segment, single round, ends assumed
# Relative to: no-protein control
# Direction: higher = stronger binding
# Constant ends, left off below: GGGAGUUCUACAGUCCGACGAUC … UGGAAUUCUCGGGUGCCAA
# Residues (chain): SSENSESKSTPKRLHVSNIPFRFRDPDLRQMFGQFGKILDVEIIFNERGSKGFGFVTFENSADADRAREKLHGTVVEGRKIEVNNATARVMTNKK
Oligonucleotide,RBNS enrichment (R)
CUGGCUUGUAUUAUCUGUCCAAAAGGAAGCCUCUUCAUCUCCCGGUGCCUUGGUUGACUAUUUUGGAAAUAGGCAUAUCAAGGUUCCUGAUUCAGCACUUUGCUCUUUUA,0.287
ACGGGGCCGGCCAGGUGGGCGGGCAGCACAGCAAGGAGGCUGGCUGGGGCCUAUCAGUGUGCCCCCCAUCCUGGCCCAUCAGUGUACCCCCGCCCAGGCUGGCCAGCCCC,0.435
UGGUCAAAGUUUUCUGUUUAUUUUGCUUGUCAUAUUCGAUGUACUUUAAGGUGUCUUUAUGAAGUUUGCUAUUCUGGCAAUAAACUUUUAGACUUUUGAAGUGUUUGUGU,0.689
UAUUACAGAUUAUACGAGUGUACUGCUUUAAAGAUAUUCCAUCAUUUUGCUGGUAAUUUCAGUAACUGUUUUCAGCAAGAAUAUUACAUGAGCUCUAAAGUUAUUAAGCA,0.56
CACAUGUAGUCCUGAGUCCUUCCUGCCGGAGAUGCCACCGGUUGCACAGCCCUCAAGAGGCCCCUUUGGAUAGUGGCCCUGCACGAGACUGUGCCUUGAUCAUUUCGGUG,0.325
GGCCUGGGAUGGGCCAGGCUGGUCCUGGCUGCCUGUUCCCUGUGCUCUUCAGAAUUACUGUUUUUGUUUCCUUUUACCCCAGCUGCCAUUAAAGCCCAAACCUCUAGCCC,1.41
GGGCACUGCUUAGAUGGCUGUUAGCUUAGAACUGGUGAAGUAAAGAUUUGGUCCCAGAAACCAGCCUGACAUGAGAACAAGCCAGGGUGUCUUCCUGGUGAGUUCUACUC,0.851
GCAUCCAAGGUAUACAUACAUAUUCAUCGAUGUUUCGUGCUUCUCCUUAUGAAACUCCAGCUAUGUAAUAAAAAACUAUACUCUGUGUUCUGUUAAUGCCUCUGAGUGUC,0.681
AUCCAAAAUAAAAACCCAGACUAGAAUAGGGUUCUUAAAAUCAAGUAUCAAUACAAAAUAGAACACAAUUAAAAUCUUAAUUGUUGGCUGGGCACAGUGGCUCACGCCUG,0.352
UGAGGCUUACAGAGUUCAAUGUUGGAAAUCAUUGUAAUCUUCAAAAUAAGUCACCGUGUUGGAUUGAAAGCUUCAAAAUUUGAAAGAAUUCCAUCAAAUACUUGCUGUGU,0.702
CAGGGUAAGUUACUGGGAGUUUGCAAGACGGAGACAAGAUCCCUGGCUCUGCCGUGCUAAUCUUCAACGUCCAUGUCAUUGACUUCCACAACCCUGCGGAUGUGGUGGAA,0.405
AAGGUGGACAUGGGAUUCCUCACUGGGAAGAGAGUUUUUCCCAUGCAGAGAGCCCCAUUAUCUCCUCUGGACCUGGGCCUUCGAACACCUGGGGGGUAUUUUUUGCCCUC,0.254

# Sample 3
# Target: Sal-like protein 4, full length isoform B (SALL4, Homo sapiens, UniProt Q9UJQ4-2, residues 1-616)
# Technique: universal PBM
# Molecule type: double-stranded DNA, one strand shown
# Sample: in vitro
# Concentration: not given
# Setting: 8-mer, flanks averaged, mean of replicates
# Direction: higher = stronger binding
# Target sequence (chain): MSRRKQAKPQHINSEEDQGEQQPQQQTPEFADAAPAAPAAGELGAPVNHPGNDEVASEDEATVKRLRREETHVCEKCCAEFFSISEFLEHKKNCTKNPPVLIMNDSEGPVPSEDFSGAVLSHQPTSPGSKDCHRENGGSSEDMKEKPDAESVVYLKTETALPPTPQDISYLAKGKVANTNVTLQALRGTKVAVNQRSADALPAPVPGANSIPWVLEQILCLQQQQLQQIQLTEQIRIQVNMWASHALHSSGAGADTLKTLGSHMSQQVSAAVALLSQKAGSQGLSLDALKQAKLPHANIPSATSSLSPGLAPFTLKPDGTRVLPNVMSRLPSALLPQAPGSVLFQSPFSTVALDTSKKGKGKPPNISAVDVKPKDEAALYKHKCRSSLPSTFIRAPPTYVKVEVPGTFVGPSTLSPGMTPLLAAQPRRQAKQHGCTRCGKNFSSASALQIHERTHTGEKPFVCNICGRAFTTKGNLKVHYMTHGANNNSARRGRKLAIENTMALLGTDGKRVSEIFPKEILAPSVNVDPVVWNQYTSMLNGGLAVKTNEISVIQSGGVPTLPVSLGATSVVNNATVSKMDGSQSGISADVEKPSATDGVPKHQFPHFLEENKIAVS
Oligonucleotide,E-score
GATCACGC,-0.115
AATGCCTC,-0.0949
GACAATAC,0.269
AAAATCGG,0.0478
AATGTCTA,0.208
ACCTGTGC,-0.037
AACAAGTA,0.225
ACGTCCCC,-0.132
ACGCGCCA,-0.201
CCCAATAC,0.116
GACCCTTA,0.0261
GGGTTGGA,-0.149
AAACTTTC,0.198
ATAGACGA,0.19
ACTTAGTG,0.121
ACAACAGG,-0.0255
CCTGCGTC,-0.249
AGAGGCCG,-0.299
GGCGGTAA,-0.155
CGGTCCGA,-0.326
CGAGTGAA,-0.0107
CTTAGAGA,-0.129
AACACTTG,-0.0417

# Sample 4
# Target: Histone acetyltransferase KAT6A, winged helix 2, GST fusion (KAT6A, Homo sapiens, UniProt Q92794, residues 85-181)
# Technique: protein binding microarray
# Molecule type: double-stranded DNA, one strand shown
# Sample: in vitro
# Concentration: not given
# Setting: 8-mer, flanks averaged, mean of 2 arrays, mostly near background
# Relative to: not given
# Direction: higher = stronger binding
# Construct (chain): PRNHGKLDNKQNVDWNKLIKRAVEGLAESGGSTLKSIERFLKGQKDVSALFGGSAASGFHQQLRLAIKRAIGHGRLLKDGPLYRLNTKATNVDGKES
Oligonucleotide,E-score
GGCATAGA,0.0135
TACTATAA,-0.119
CCCGAGTC,0.152
AGCAGATG,0.0573
TATATCCA,-0.115
TAGGTTGA,0.028
CAGCGCCG,0.137
GACTCGAA,-0.118
CTGTTTCC,-0.0643
GTCACCAA,-0.0297
GGGACACC,0.137
TAATTCAA,0.106
ACCTCCCA,-0.118
GCCTCCGC,0.0797
TCTTCTAA,-0.023
CGCACGCC,0.231
ACTACGGC,0.00696
AGTGGGAA,0.0612
TAAGCATA,0.113
CAATAAGA,0.162
ACGAAGGA,-0.0799
ATATGCAG,-0.128
GCCATAAA,-0.0833

# Sample 5
# Target: POU domain, class 5, transcription factor 1, POU domain (Pou5f1, Mus musculus, UniProt P20263, residues 131-289)
# UniProt P20263, sequence (131-289, looked up): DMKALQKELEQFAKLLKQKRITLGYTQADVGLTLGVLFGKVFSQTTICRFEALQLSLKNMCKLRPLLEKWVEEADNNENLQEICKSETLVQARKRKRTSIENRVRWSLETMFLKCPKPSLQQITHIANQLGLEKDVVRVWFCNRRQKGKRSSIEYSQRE
# Technique: Spec-seq
# Molecule type: double-stranded DNA, one strand shown
# Sample: in vitro
# Concentration: not given
# Setting: whole probe, mean of replicates
# Relative to: not given
# Direction: lower = stronger binding
# Constant ends, left off below: GAGTCGTCTCGTCAGCAC … CCGTAGAGCACTCAGGTC
Oligonucleotide,relative binding energy [ln ratio]
CGCCTAAT,0.843
ATGCCGAC,0.791
ATACATAT,-1.33
ATCCTCAT,0.814
ATGCCTAA,0.367
ATGCGGGT,0.455
ATGGCGAT,0.797
ATGGGCAT,0.668
ATGCCCCA,0.661
TTACTAAT,0.197
TCAATAAT,-0.166
CGCATAAT,-1.11
ATGCCACG,0.562
TATTTAAT,-0.323
GGTTTAAT,0.734
GGTATAAT,0.427
ATTGGCAT,0.0174

# Sample 6
# Target: Prothrombin, mature alpha-thrombin (F2, Homo sapiens, UniProt P00734)
# Technique: aptamer microarray, sandwich
# Molecule type: DNA with 2'F-ANA
# Sample: in vitro
# Concentration: 200 nM
# Setting: whole 15-mer aptamer, many near background
# Added: Cy3 exosite-II aptamer, 400 nM
# Direction: higher = stronger binding
# Oligonucleotide: GGTTGGTGTGGTTGG
Modification,mean fluorescence intensity [a.u.]
2'F-ANA at 3 7 8 11 14,669
2'F-ANA at 1 2 4 5 10 11 13 14,49.6
2'F-ANA at 2 3 6 9 12,1030
2'F-ANA at 3 4 5 6 7 11 12 13,110
2'F-ANA at 2 3 4 6 8,638
2'F-ANA at 1 3 5 7 8 10 11 12 14 15,76.2
2'F-ANA at 1 2 3 5 6 7 10 12 13 15,51.5
2'F-ANA at 1 2 6 7 8 10 11 12 14,55.4
2'F-ANA at 1 2 6 7 10 12 14,47.3
2'F-ANA at 2 3 4 5 6 7 9 11 12 15,118
2'F-ANA at 2 3 4 5 7 15,122
2'F-ANA at 1 4 6 7 10 11 12 15,57.9
2'F-ANA at 1 2 5 6 10 11 12 14 15,59.5
2'F-ANA at 1 3 4 5 6 7 9 10 11 12 14,47.4
2'F-ANA at 1 3 4 6 7 8 12 15,423
2'F-ANA at 6 7 9 10 11,150
2'F-ANA at 1 3 4 5 8 10 13 15,59.6
2'F-ANA at 1 4 6 7 8 10 11 12 13 14 15,80.6
2'F-ANA at 2 3 5 6 8 11,86.6
2'F-ANA at 1 2 3 5 11 13 14 15,49
2'F-ANA at 4 11 12 14 15,119
2'F-ANA at 1 3 4 6 8 11 13 15,147
2'F-ANA at 2 4 5 6 7 8 10 11 12 15,48.1
2'F-ANA at 3 4 5 6 8 9 12 14,98.2

# Repeated from above (sample 1):
Oligonucleotide,fluorescence intensity
TCATTAAAAACGCTTCACGTGATGGTTACTTGCATA,3550 a.u.
AATGATATCACCAGTACCGTGACGGACATCAAACTC,126 a.u.
GGTACGGCAACTCAATCCGTGCCAGCTTCGGAAGCC,60.5 a.u.
GGTGTCTCTGTCAGCCCCGTGGTCGCCAGCACAGAA,134 a.u.
TAAGAAGAAAGATCGAACGTGATTGTAATGCTCCAA,173 a.u.
AAAGCGGTAATTTGGCAGGTGGGTGCAGATATCTAT,90.7 a.u.
ATGGCTTTGGCTTTCCACATGGACATCAAGGTCTAC,82.8 a.u.
AATGCTGAGAGTAGGCACATGGAGTAGCTTGAGTCA,85.8 a.u.
